Experimental data of several laboratories.
Lines come from different studies, so protocols differ. Numbers after ± are the reported error.
Target: Cytochrome P450 2D6 (CYP2D6, Homo sapiens, UniProt P10635)
Chain of UniProt P10635 (whole entry, looked up): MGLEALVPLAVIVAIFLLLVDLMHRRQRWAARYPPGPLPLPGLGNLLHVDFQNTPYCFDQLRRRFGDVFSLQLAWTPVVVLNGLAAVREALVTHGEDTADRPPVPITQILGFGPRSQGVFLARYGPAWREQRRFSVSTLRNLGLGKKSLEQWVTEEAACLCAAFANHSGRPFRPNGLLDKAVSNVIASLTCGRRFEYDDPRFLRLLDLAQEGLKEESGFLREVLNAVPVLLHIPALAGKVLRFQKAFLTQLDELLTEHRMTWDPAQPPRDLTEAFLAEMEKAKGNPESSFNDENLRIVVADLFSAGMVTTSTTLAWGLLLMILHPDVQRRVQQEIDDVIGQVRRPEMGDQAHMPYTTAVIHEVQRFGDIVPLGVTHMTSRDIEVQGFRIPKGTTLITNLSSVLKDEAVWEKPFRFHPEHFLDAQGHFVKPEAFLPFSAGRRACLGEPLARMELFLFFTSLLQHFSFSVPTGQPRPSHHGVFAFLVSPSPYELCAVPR

O=C(O)c1cc(-c2ccc(-c3cc[nH]n3)cc2)c2ccc(-c3ccc(C(F)(F)F)cc3)cc2c1: inhibition “no inhibition” (10 µM).
The IC50 of CCNCc1cnn(-c2ccc(-n3ccc(Cl)c(Cl)c3=O)cc2)c1C(F)(F)F is reported as 39.3 µM (enzyme activity, inhibitor; human liver microsomes; 10 min).
For CSc1ccccc1C(=O)NCCn1cc(C(=O)NCc2cccc(C)n2)c(=O)c2cc3c(cc21)OC(F)(F)O3, the IC50 was greater than 100 µM (enzyme activity, inhibitor; human liver microsomes; 20 min, 30 min NADPH preincubation, together with: dextromethorphan 10 µM).
C[C@]1(c2nc3c(C(N)=O)cccc3[nH]2)CCCN1: “other enzymes contribution to metabolism” 28% (human liver microsomes; 100 µmol/L, 30 min).
C[S+]([O-])CCCCN=C=S (centres unmarked) gave an inhibition of 68% (enzyme activity; human liver microsomes; concentration not given, 10 min, together with: dextromethorphan).
C[C@@H](c1ccc2nccn2c1)n1nnc2ncc(-c3cnn(C)c3)nc21 has a time-dependent inhibition of less than 20% (human liver microsomes; 10 and 50 µM, 30 min preincubation, pH 7.4, together with: ± NADPH).
O=C(Nc1c2c(cc3c1CCC3)CCC2)NS(=O)(=O)/C=C/c1nccs1 gave an inhibition of less than 0% (human liver microsomes; 2 µM, pH 7.4, together with: dextromethorphan).
Cc1cc(C)c(CNC(=O)c2cc(Cl)c3c(c2C)O[C@@](C)([C@H]2CC[C@H](N(C)C)CC2)O3)c(=O)[nH]1 has a CLint of 0.00644 µL/min/pmol (recombinant human CYP2D6; 0 and 30 min).
CN(C(=O)n1cnc(-c2ccc[n+]([O-])c2)c1)C1CCCCC1 has a remaining activity of 85.1% (inhibitor; pooled human liver microsomes; 0.1 to 30 µg/mL, together with: bufuralol; reference: control).
For CSc1ccccc1C(=O)NCCn1cc(C(=O)NCc2cccc(C)n2)c(=O)c2cc3c(cc21)OCO3, the IC50 was 72.1 µM (enzyme activity, inhibitor; human liver microsomes; 20 min, 30 min NADPH preincubation, together with: dextromethorphan 10 µM).
For C[C@H]1CN(C2COC2)CCN1c1ccc(Nc2cc(-c3ccnc(N4CCn5c(cc6c5CC(C)(C)C6)C4=O)c3CO)cn(C)c2=O)nc1, the remaining compound was 98.4 ± 6.7% (substrate; recombinant enzyme; 1 µM, 60 min).
For N#C[C@H](C[C@@H]1CCCNC1=O)NC(=O)[C@H](CC1CC1)NC(=O)c1cc2cccc(Cl)c2[nH]1, the fraction metabolised was less than 1% (ISEF abundance scaling; 2 µM, pH 7.4).
The Ki of N#Cc1ccc([C@H]2CCc3cncn32)c(F)c1 is reported as 2 µM (inhibitor, item: bufuralol 1'-hydroxylation; pooled human liver microsomes; pH 7.4, together with: bufuralol 5 µM).
C=CC(=O)Nc1cc(Nc2nccc(-c3cn(C)c4ccccc34)n2)c(OCC(F)(F)F)nc1N(C)CCN(C)C has an intrinsic clearance of 0.3 µL/min/pmol (substrate depletion; recombinant human CYP; 1 µM).

A few entries again:
C[C@]1(c2nc3c(C(N)=O)cccc3[nH]2)CCCN1: “other enzymes contribution to metabolism” 28% (human liver microsomes; 100 µmol/L, 30 min).
C[C@@H](c1ccc2nccn2c1)n1nnc2ncc(-c3cnn(C)c3)nc21 has a time-dependent inhibition of less than 20% (human liver microsomes; 10 and 50 µM, 30 min preincubation, pH 7.4, together with: ± NADPH).
